Measured values pooled from the literature.
Lines come from different studies, so protocols differ. pIC50: −log10 of the molar value.
Cell line: B16-F10

SMILES | assay | system | conditions | endpoint | value
COc1cc(C(=O)c2[nH]c(N)nc2-c2cccs2)cc(OC)c1OC | cell growth or viability, SRB | – | – | pIC50 | 6.38
O=C(NCCc1ccccc1)c1ccccc1-n1c(=O)[nH]c2ccccc2c1=O | cell growth or viability, MTT | – | 24 h | pIC50 | 4.36
C[C@@H](NC(=O)Cc1ccc(Cl)c(SC2C(=O)CC(c3c(Cl)cccc3Cl)CC2=O)c1)c1cccc2ccccc12 (stereo partly drawn) | Western blot | – | concentration not given, 24 h | c-Myc and p-Rb/Rb levels | decreased
C=C1C(=O)OC2CC3=C[C@@H](C/C(C)=C/C(OC(=O)Cc4cccc5ccccc45)[C@H]12)OC3=O (stereo partly drawn) | cell growth or viability, MTT | – | 24 h | pIC50 | 5.57
O=C1Nc2ccccc2/C1=N/c1ccccc1C(=O)Nc1ccccc1 | cell growth or viability, MTT | – | 24 h | pIC50 | 4.65
COC(=O)c1ccc(-n2nc(C(F)(F)F)cc2-c2cc(OC)c(OC)c(OC)c2)cc1 | cell growth or viability, SRB | – | – | pIC50 | 5.22
C=C(C)[C@@H]1CC[C@]2(C(=O)OCO/N=[N+](\[O-])N3CCCC3)CC[C@]3(C)[C@H](CC[C@@H]4[C@@]5(C)CC[C@H](OC(C)=O)C(C)(C)[C@@H]5CC[C@]43C)[C@@H]12 | western blot | cytosol | 0.25 to 1.0 µM, 48 h | cytochrome c level | increased
Cc1cc(-c2ccccc2)c2ccc3c(-c4ccccc4)cc(C)nc3c2n1.[Cl-].[Cl-].[Ru+2].c1ccc(-c2ccccn2)nc1.c1ccc(-c2ccccn2)nc1 | cell viability, WST-1 | – | 72 h, dark | pIC50 | < 4.00
O=c1[nH]c2ccccc2nc1/C=C/c1ccc2ccccc2n1 | cell growth or viability, MTT | – | 72 h | pIC50 | 4.89
C=C1C(=O)O[C@H]2CC3=C[C@@H](C/C(C)=C/[C@@H](OC(=O)/C=C/c4ccccc4)[C@H]12)OC3=O | cell growth or viability, MTT | – | 24 h | pIC50 | 5.41
O=c1[nH]c2ccccc2nc1/C=C/C=C/c1ccccc1 | cell growth or viability, MTT | – | 72 h | pIC50 | 4.98
CC(=O)Nc1ccc(OC(=O)CCC(=O)[O][Pt-2]23([O]C(=O)CCC(=O)Oc4ccc(NC(C)=O)cc4)([NH2+][C@@H]4CCCC[C@H]4[NH2+]2)[O]C(=O)C(=O)[O]3)cc1 | cell growth or viability, MTT | – | 48 h | pIC50 | 4.80

Repeated from above:
SMILES | assay | system | conditions | endpoint | value
O=C1Nc2ccccc2/C1=N/c1ccccc1C(=O)Nc1ccccc1 | cell growth or viability, MTT | – | 24 h | pIC50 | 4.65
